Published values pooled from the literature.
Numbered parts are unrelated; each lists some results of a single study.
Sequence of UniProt P37173 (whole entry, looked up): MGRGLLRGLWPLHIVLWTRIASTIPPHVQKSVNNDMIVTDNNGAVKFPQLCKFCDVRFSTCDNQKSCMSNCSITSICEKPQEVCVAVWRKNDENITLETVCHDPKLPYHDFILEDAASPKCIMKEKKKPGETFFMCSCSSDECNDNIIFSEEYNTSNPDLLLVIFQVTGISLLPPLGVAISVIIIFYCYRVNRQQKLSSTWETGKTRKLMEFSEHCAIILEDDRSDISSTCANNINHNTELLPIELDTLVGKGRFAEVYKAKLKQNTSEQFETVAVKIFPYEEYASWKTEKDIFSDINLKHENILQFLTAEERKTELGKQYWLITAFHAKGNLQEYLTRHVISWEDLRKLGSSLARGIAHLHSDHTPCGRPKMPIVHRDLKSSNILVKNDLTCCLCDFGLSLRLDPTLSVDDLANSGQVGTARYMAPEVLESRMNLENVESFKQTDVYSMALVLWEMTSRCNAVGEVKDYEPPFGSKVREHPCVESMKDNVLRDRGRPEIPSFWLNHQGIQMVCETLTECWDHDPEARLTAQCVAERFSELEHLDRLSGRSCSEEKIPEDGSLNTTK
Sequence of UniProt P42336 (whole entry, unmodified, looked up): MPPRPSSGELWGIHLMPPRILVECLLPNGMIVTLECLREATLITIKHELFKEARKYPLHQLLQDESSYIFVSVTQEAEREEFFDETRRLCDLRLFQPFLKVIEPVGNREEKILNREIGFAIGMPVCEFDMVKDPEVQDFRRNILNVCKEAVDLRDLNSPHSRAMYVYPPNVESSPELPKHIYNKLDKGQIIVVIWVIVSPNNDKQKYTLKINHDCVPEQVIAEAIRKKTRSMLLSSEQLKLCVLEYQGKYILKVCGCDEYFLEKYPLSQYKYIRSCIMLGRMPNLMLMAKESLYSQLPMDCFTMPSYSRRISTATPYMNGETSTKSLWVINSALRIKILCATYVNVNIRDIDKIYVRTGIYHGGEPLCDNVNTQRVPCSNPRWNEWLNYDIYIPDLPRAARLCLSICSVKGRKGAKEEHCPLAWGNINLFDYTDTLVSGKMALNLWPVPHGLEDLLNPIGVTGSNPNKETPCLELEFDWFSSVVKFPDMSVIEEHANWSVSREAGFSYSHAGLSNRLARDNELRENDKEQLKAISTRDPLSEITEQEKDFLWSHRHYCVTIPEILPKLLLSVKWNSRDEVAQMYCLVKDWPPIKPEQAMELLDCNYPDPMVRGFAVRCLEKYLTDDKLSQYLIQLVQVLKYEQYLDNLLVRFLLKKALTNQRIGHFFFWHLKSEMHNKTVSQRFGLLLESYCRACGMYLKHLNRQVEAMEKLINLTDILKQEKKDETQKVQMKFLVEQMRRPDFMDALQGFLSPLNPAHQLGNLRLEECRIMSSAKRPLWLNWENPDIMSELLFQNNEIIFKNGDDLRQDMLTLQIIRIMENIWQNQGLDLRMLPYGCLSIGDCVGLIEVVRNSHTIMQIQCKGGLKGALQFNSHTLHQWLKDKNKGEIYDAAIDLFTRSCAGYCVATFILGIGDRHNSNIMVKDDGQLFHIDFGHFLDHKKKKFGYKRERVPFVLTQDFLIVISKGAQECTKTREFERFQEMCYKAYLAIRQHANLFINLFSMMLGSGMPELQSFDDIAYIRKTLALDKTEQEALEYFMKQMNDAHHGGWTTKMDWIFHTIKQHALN
Sequence of UniProt Q8IY84 (whole entry, looked up): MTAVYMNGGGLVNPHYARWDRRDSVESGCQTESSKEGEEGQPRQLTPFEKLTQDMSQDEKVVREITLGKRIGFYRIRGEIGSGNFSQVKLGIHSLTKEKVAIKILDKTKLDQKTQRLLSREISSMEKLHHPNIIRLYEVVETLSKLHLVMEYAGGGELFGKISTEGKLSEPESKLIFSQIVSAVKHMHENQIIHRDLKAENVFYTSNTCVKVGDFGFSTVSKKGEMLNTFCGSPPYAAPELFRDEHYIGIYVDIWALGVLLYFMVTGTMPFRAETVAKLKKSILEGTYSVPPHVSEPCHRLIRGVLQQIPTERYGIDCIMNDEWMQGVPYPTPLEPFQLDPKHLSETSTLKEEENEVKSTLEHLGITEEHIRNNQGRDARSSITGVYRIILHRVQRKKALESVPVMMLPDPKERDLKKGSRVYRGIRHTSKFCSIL
Sequence of UniProt P45984 (whole entry, looked up): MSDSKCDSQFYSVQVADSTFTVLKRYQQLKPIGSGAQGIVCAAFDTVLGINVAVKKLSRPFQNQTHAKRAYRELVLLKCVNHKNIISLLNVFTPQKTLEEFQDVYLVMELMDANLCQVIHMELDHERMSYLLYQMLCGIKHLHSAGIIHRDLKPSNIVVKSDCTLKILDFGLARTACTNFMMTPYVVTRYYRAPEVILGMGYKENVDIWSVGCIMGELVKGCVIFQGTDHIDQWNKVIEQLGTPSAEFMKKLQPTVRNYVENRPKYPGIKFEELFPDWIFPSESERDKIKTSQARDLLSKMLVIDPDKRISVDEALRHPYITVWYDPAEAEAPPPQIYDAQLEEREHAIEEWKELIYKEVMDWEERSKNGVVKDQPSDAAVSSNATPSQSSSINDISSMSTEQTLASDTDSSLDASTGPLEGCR

Set 1 — read-out: cell-free assay; method: competition with immobilised ligand; concentration: 0.1 µM
SMILES: CC(C)CC(=O)N1CCc2nc(-c3ccc(Br)cc3)nc(N(C)Cc3ccccc3)c2C1
target	remaining binding [%]
Cyclin-dependent kinase 7 (CDK7, Homo sapiens, UniProt P50613)	65
ALK tyrosine kinase receptor (ALK, Homo sapiens, UniProt Q9UM73)	91
Tyrosine-protein kinase ABL1, phosphorylated (ABL1, Homo sapiens, UniProt P00519, M351T)	100
TGF-beta receptor type-2 (TGFBR2, Homo sapiens, UniProt P37173)	97
Tyrosine-protein kinase Tec (TEC, Homo sapiens, UniProt P42680)	100
Serine/threonine-protein kinase TAO1 (TAOK1, Homo sapiens, UniProt Q7L7X3)	100
Dual specificity tyrosine-phosphorylation-regulated kinase 2 (DYRK2, Homo sapiens, UniProt Q92630)	84
Serine/threonine-protein kinase NLK (NLK, Homo sapiens, UniProt Q9UBE8)	100
Serine/threonine-protein kinase BRSK2 (BRSK2, Homo sapiens, UniProt Q8IWQ3)	94
SRSF protein kinase 2 (SRPK2, Homo sapiens, UniProt P78362)	100
Phosphatidylinositol 4,5-bisphosphate 3-kinase catalytic subunit alpha isoform (PIK3CA, Homo sapiens, UniProt P42336, I800L)	98
Dual specificity mitogen-activated protein kinase kinase 6 (MAP2K6, Homo sapiens, UniProt P52564)	100
Death-associated protein kinase 3 (DAPK3, Homo sapiens, UniProt O43293)	100
Homeodomain-interacting protein kinase 1 (HIPK1, Homo sapiens, UniProt Q86Z02)	64
Serine/threonine-protein kinase NIM1 (NIM1K, Homo sapiens, UniProt Q8IY84)	100
Receptor-type tyrosine-protein kinase FLT3 (FLT3, Homo sapiens, UniProt P36888, ITD)	99
Phosphatidylinositol 5-phosphate 4-kinase type-2 beta (PIP4K2B, Homo sapiens, UniProt P78356)	61
Mast/stem cell growth factor receptor Kit (KIT, Homo sapiens, UniProt P10721)	100
Dual specificity mitogen-activated protein kinase kinase 4 (MAP2K4, Homo sapiens, UniProt P45985)	97
Ephrin type-A receptor 5 (EPHA5, Homo sapiens, UniProt P54756)	89
Mitogen-activated protein kinase 7 (MAPK7, Homo sapiens, UniProt Q13164)	100
Phosphatidylinositol 4-phosphate 5-kinase type-1 gamma (PIP5K1C, Homo sapiens, UniProt O60331)	85
Phosphatidylinositol 3-kinase catalytic subunit type 3 (PIK3C3, Homo sapiens, UniProt Q8NEB9)	100
Tyrosine-protein kinase receptor Tie-1 (TIE1, Homo sapiens, UniProt P35590)	100
Phosphatidylinositol 4,5-bisphosphate 3-kinase catalytic subunit alpha isoform (PIK3CA, Homo sapiens, UniProt P42336, H1047L)	100

Set 2 — read-out: enzyme activity; mode: inhibitor; concentration: 77 µM; baseline: untreated
Target: DNA polymerase theta, ATPase domain (POLQ, Homo sapiens, UniProt O75417)
Sequence of UniProt O75417 (whole entry, unmodified, looked up): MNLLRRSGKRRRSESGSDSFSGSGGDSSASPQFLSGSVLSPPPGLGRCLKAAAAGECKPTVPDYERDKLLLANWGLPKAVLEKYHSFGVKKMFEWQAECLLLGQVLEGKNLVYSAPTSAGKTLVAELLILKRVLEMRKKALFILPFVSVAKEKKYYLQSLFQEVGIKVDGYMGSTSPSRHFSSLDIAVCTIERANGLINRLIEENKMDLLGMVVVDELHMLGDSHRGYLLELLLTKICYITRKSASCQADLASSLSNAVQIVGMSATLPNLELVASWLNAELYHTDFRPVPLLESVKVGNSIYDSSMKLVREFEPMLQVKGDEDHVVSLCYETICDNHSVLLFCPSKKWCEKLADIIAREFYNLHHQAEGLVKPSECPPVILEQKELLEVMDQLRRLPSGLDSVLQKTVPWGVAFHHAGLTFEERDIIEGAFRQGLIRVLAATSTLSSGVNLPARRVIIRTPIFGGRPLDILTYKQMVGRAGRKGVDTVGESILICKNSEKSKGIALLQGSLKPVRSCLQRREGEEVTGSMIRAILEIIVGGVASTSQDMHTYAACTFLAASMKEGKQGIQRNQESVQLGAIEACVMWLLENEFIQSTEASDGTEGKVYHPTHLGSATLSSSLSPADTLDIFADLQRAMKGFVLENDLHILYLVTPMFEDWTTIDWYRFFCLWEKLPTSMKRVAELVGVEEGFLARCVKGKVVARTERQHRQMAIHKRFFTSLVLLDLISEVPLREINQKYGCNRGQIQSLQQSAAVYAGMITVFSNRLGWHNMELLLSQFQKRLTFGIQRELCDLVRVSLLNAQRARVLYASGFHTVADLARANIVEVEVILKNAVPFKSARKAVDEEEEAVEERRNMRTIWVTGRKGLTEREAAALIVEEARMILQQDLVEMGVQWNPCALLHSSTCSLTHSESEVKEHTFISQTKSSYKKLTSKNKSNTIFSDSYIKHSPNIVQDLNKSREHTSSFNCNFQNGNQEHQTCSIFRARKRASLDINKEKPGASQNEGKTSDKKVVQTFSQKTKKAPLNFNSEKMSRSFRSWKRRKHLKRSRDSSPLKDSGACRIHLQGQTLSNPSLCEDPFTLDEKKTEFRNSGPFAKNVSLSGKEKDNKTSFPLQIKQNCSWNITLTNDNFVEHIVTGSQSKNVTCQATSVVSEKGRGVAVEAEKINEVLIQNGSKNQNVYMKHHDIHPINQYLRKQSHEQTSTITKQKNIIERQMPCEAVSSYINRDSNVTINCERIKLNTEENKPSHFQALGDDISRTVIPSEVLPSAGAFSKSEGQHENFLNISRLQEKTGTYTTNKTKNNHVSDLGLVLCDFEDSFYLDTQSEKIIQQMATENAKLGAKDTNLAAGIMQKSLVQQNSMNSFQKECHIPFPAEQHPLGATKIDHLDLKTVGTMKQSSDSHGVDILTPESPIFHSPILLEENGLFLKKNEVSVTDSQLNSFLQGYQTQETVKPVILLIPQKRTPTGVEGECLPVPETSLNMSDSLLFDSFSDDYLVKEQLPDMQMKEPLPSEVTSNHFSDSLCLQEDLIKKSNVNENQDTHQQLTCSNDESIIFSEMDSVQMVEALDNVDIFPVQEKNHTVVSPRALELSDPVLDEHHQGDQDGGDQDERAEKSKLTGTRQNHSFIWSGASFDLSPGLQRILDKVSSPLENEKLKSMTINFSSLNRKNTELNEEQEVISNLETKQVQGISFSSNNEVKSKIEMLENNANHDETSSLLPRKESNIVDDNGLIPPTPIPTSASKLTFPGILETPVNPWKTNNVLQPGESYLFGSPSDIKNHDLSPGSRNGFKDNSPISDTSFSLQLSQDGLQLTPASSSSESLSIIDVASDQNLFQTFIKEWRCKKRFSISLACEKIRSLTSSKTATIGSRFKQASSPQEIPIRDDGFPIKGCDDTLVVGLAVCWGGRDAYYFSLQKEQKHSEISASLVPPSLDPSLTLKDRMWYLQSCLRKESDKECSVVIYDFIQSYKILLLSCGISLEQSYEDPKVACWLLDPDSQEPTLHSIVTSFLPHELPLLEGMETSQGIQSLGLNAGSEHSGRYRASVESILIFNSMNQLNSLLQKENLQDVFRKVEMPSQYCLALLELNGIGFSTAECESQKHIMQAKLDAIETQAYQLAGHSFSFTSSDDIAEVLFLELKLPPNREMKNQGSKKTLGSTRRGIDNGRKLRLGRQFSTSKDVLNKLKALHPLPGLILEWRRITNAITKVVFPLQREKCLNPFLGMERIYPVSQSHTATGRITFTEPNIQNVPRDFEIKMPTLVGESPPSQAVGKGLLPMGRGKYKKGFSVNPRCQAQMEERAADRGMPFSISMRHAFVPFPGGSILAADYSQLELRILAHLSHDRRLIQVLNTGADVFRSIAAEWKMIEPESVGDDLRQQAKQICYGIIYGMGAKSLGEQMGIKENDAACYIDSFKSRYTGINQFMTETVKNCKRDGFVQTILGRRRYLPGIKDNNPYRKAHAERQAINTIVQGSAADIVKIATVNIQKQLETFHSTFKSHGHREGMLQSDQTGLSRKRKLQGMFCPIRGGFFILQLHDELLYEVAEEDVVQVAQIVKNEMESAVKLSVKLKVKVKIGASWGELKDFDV
SMILES	remaining activity [%]
Cc1cnc(NC(=O)Nc2cc(Br)c(C)cc2OC[C@@H]2CNCCO2)cn1	98
COc1cc2c(CCNC(C)=O)c[nH]c2cc1O	103
COc1ccc([C@@H]2CC(=O)c3c(O)cc(O[C@@H]4O[C@H](CO)[C@@H](O)[C@H](O)[C@H]4O[C@@H]4O[C@@H](C)[C@H](O)[C@@H](O)[C@H]4O)cc3O2)cc1O	101
CCCCN(Cc1ccc(C(=O)NO)cc1)C(=O)Nc1ccccc1	98.5
Nc1ccn([C@@H]2CS[C@H](CO)O2)c(=O)n1	100
Cc1ccc(C(=O)Nc2cccc(C(F)(F)F)c2)cc1Nc1nc(-c2cccnc2)nc2c1cnn2C	102
CC(c1cc2ccccc2s1)N(O)C(N)=O (stereo not shown)	97.8
CN1CCN(c2ccc(OC(F)(F)F)c(Nc3ncc4c(n3)-c3c(c(C(N)=O)nn3CCO)CC4)c2)CC1	102
NCC(O)C1CCCCCCC1 (stereo not shown)	101
CC(CN(C)C)CN1c2ccccc2Sc2ccccc21 (stereo not shown)	103

Set 3 — read-out: enzyme activity; mode: inhibitor; concentration: 0.5 µM; baseline: control
SMILES: CN(C)CCCn1cc(C2=C(c3c[nH]c4ccccc34)C(=O)NC2=O)c2ccccc21
target	remaining activity [%]
Serine/threonine-protein kinase Chk2 (CHEK2, Homo sapiens, UniProt O96017)	68.5
Serine/threonine-protein kinase Nek2 (NEK2, Homo sapiens, UniProt P51955)	96.2
Death-associated protein kinase 2 (DAPK2, Homo sapiens, UniProt Q9UIK4)	105
Cyclin-dependent kinase 5, with p25 (CDK5, Homo sapiens, UniProt Q00535)	80.2
Mitogen-activated protein kinase 9 (MAPK9, Homo sapiens, UniProt P45984)	98.7
TGF-beta receptor type-2 (TGFBR2, Homo sapiens, UniProt P37173)	90.4
Serine/threonine-protein kinase 10 (STK10, Homo sapiens, UniProt O94804)	19.4
Calcium/calmodulin-dependent protein kinase type II subunit delta (CAMK2D, Homo sapiens, UniProt Q13557)	38.7
Serine/threonine-protein kinase OSR1 (OXSR1, Homo sapiens, UniProt O95747)	97.4
Protein kinase C beta type, isoform beta-I (PRKCB, Homo sapiens, UniProt P05771)	3.24
cGMP-dependent protein kinase 1, isoform beta (PRKG1, Homo sapiens, UniProt Q13976)	59.3
STE20/SPS1-related proline-alanine-rich protein kinase (STK39, Homo sapiens, UniProt Q9UEW8)	91.9
G protein-coupled receptor kinase 3 (GRK3, Homo sapiens, UniProt P35626)	99
Death-associated protein kinase 1 (DAPK1, Homo sapiens, UniProt P53355)	87.9
Tyrosine-protein kinase Lyn, isoform B (LYN, Homo sapiens, UniProt P07948)	104
Inhibitor of nuclear factor kappa-B kinase subunit epsilon (IKBKE, Homo sapiens, UniProt Q14164)	89.4
Serine/threonine-protein kinase STK11 (STK11, Homo sapiens, UniProt Q15831)	92.8
Calcium/calmodulin-dependent protein kinase kinase 2 (CAMKK2, Homo sapiens, UniProt Q96RR4)	59.8
Mitogen-activated protein kinase kinase kinase 3 (MAP3K3, Homo sapiens, UniProt Q99759)	97
TGF-beta receptor type-1 (TGFBR1, Homo sapiens, UniProt P36897)	102
Cyclin-dependent kinase 4, with cyclin D1 (CDK4, Homo sapiens, UniProt P11802)	60.7
Inhibitor of nuclear factor kappa-B kinase subunit beta (IKBKB, Homo sapiens, UniProt O14920)	119

Set 4 — read-out: enzyme activity; mode: inhibitor; method: ADP-Glo
SMILES: CN(C(=O)c1ccn2ncc(-c3ccc(C(N)=O)cc3)c2c1)c1ccc(C#N)cn1
Target: Phosphatidylinositol 4-kinase (Cryptosporidium parvum, UniProt Q5CVD3)
concentration	inhibition [%]
0.006667 µM	100
0.02 µM	100
8.23e-05 µM	85
9.15e-06 µM	39.9

A few entries again (set 3):
target	remaining activity [%]
Mitogen-activated protein kinase kinase kinase 3 (MAP3K3, Homo sapiens, UniProt Q99759)	97
Calcium/calmodulin-dependent protein kinase type II subunit delta (CAMK2D, Homo sapiens, UniProt Q13557)	38.7
Serine/threonine-protein kinase OSR1 (OXSR1, Homo sapiens, UniProt O95747)	97.4
Cyclin-dependent kinase 5, with p25 (CDK5, Homo sapiens, UniProt Q00535)	80.2
STE20/SPS1-related proline-alanine-rich protein kinase (STK39, Homo sapiens, UniProt Q9UEW8)	91.9
TGF-beta receptor type-2 (TGFBR2, Homo sapiens, UniProt P37173)	90.4
Cyclin-dependent kinase 4, with cyclin D1 (CDK4, Homo sapiens, UniProt P11802)	60.7
G protein-coupled receptor kinase 3 (GRK3, Homo sapiens, UniProt P35626)	99
